Measured values pooled from the literature.
Lines come from different studies, so protocols differ. ± marks the error that the study gave.
Organism: Plasmodium falciparum

Compound	assay	test system	setting	IC50
C[C@H](O)C(=O)CCCCCCC(=O)Nc1ccccc1	[3H]-hypoxanthine incorporation			> 100000 nM
Cc1[nH]c(/C=C2\N=C(c3ccc[nH]3)C=C2OC(C)C)cc1Cc1ccc(Cl)cc1	parasite growth, SYBR Green fluorescence	Tm90-C2B (atovaquone-resistant), asexual blood stage	72 h	14.2 nM
CCC1=C(CC)/C(=C/NC23C[C@H]4C[C@@H](C2)C[C@@H](C3)C4)N=C1c1ccc(C)[nH]1	parasite growth, SYBR Green I fluorescence	D6, chloroquine-sensitive	72 h	< 1 nM
C[C@@H]1CC[C@H]2[C@@H](C)C(=O)O[C@@H]3O[C@@]4(C)CC[C@@H]1[C@]32OO4	parasite growth, [3H]hypoxanthine incorporation	K1	erythrocytic stages	3.5 nM
CC1Cc2c([nH]c3ccccc23)C2(N1)C(=O)Nc1ccc(Cl)cc12 (stereo not drawn)	parasite growth, [3H]hypoxanthine incorporation	NF54		17 nM
O[C@@H](CN[C@@H](COCC1CC1)Cc1ccccc1)c1cc(Cl)cc2c1-c1ccc(Cl)cc1C2		3D7	48 h	3.8 ± 0.2 nM
CC1=C(Cc2cn(CCOS(=O)(=O)c3ccc(C)cc3)nn2)C(=O)c2ccccc2C1=O	parasite growth, [3H]hypoxanthine incorporation	NF54	72 h	770 nM
O=C(CC1NCCCC1O)Cn1cnc2cc(Br)c(Cl)cc2c1=O (stereo not drawn)	parasite growth	conditional knockdown control line	72 h, together with: 50 nM anhydrotetracycline	0.4 nM
COC1=CC(c2ccc[nH]2)=N/C1=C\c1cc(Cc2ccc(OC)cc2)c(-c2ccc(OC)cc2)[nH]1	parasite growth, SYBR Green fluorescence	Dd2 (multidrug-resistant), asexual blood stage	72 h	109 nM
CC1=C(Cn2cc(CO)nn2)C(=O)c2ccccc2C1=O	parasite growth, [3H]hypoxanthine incorporation	NF54	72 h	> 10000 nM
CCN(CC)CCCC(C)Nc1ccnc2cc(Cl)ccc12 (stereo not drawn)	asexual parasite proliferation, SYBR Green I fluorescence	7G8		41.1 ± 5.7 nM
O=C1C(O)=C([C@H]2CC[C@H](c3ccc(Cl)cc3)CC2)C(=O)c2ccccc21	growth	3D7	48 h	4 ± 1 nM
CC1=C(C)/C(=C/c2cc(-c3ccc(Cl)cc3)c(C)[nH]2)N=C1c1ccc[nH]1	parasite growth, SYBR Green fluorescence	Dd2 (multidrug-resistant), asexual blood stage	72 h	> 2500 nM
CCN(CC)CCCC(C)Nc1ccnc2cc(Cl)ccc12 (stereo not drawn)	parasite growth	RF12		210 nM
COc1cc(C)c(-c2ccc(O)c3c2C[C@@H](C)N[C@@H]3C)c2cccc(O)c12 (single isomer, unassigned)	asexual parasite proliferation, SYBR Green I fluorescence	7G8		21.7 ± 5 nM
O[C@@H](c1cc(C(F)(F)F)nc2c(C(F)(F)F)cccc12)[C@H]1CCCCN1	parasite growth, inhibitor, SYBR Green I	3D7		14.6 nM
CCc1nc(N)nc(N)c1-c1ccc(Cl)cc1	cell growth	erythrocytes, 3D7	low-folate medium	50 ± 10 nM
CCCCCNCC(O)c1cc(Cl)cc2c1-c1ccc(Cl)cc1C2 (racemic)		3D7	48 h	3.6 ± 0.5 nM
Nc1ccc(S(=O)(=O)c2ccc(N)cc2)cc1	cell growth	erythrocytes, K1	low-folate medium	51200 ± 2620 nM
N=C(N)NCCCCC(=O)Nc1cc(C(F)(F)F)cc(NC(=O)c2cc(C(=O)Nc3cc(C(F)(F)F)cc(NC(=O)CCCCNC(=N)N)c3O[C@@H]3CCNC3)ncn2)c1O[C@@H]1CCNC1	parasite growth, stage-specific treatment		12 h, early to late schizont stage	4400 ± 240 nM
CC1=C(Cn2cc(C(C)(C)O)nn2)C(=O)c2ccccc2C1=O	parasite growth, [3H]hypoxanthine incorporation	NF54	72 h	> 10000 nM
N=C(CC(O)c1nc2ccccc2c2ccc(Cl)cc12)Nc1ccc(F)cc1 (stereo not drawn)	parasite growth, HRP2-ELISA	clinical isolates from Gabon	ex vivo, median	33.2 nM
CC1=C(Cn2cc(COC3COC3)nn2)C(=O)c2ccccc2C1=O	parasite growth, [3H]hypoxanthine incorporation	NF54	72 h	> 10000 nM
COc1ncnc(NS(=O)(=O)c2ccc(N)cc2)c1OC	cell growth	erythrocytes, HB3	low-folate medium	175000 ± 71600 nM

Compound	assay	test system	setting	IC50
COC1=CC(c2ccc[nH]2)=N/C1=C\c1cc(Cc2ccc(OC(F)(F)F)cc2)c(C)[nH]1	parasite growth, SYBR Green fluorescence	Dd2 (multidrug-resistant), asexual blood stage	72 h	3.15 nM
NC(N)=Nc1ccc(-c2ccc(-c3ccc(N=C(N)N)c(Cl)c3)o2)cc1Cl	parasite growth, stage-specific treatment		12 h, early to late ring stage	1310 ± 70 nM
COc1cc(CO)c(-c2ccc3c(c2O)[C@@H](C)N[C@H](C)C3)c2cccc(O)c12	asexual parasite proliferation, SYBR Green I fluorescence	K1		55 ± 11 nM
Cc1ccccc1C(=O)N1NC(=Nc2ccccc2)SC1(C)C	parasite growth, inhibitor, SYBR Green I	3D7		47900 nM
CCN(CC)CCCC(C)Nc1ccnc2cc(Cl)ccc12 (stereo not drawn)	asexual blood-stage growth, [3H]hypoxanthine uptake	3D7	72 h	10 nM
Cc1[nH]c(/C=C2\N=C(c3ccc[nH]3)C3=C2OCCO3)cc1Cc1ccc(OC(F)(F)F)cc1	parasite growth, SYBR Green fluorescence	Dd2 (multidrug-resistant), asexual blood stage	72 h	16.7 nM
CC1=C(Cn2cc(CN3CCSC3)nn2)C(=O)c2ccccc2C1=O	parasite growth, [3H]hypoxanthine incorporation	NF54	72 h	> 10000 nM
C[C@H](O)C(=O)CCCCCCC(=O)Nc1cccc(-c2cn(-c3ccccc3)nn2)c1	[3H]-hypoxanthine incorporation			4850 nM
O=C(O)/C=C/C=C/c1cccc(Oc2cc(Cl)cc(Cl)c2)c1	parasite growth, inhibitor, SYBR Green I	3D7		37200 nM
CCCCCCCCNC[C@H](O)c1cc(Cl)cc2c1-c1ccc(Cl)cc1C2		3D7	48 h	0.7 ± 0.1 nM
CCOC1=CC(c2ccc[nH]2)=N/C1=C\c1cc(Cc2ccc(Cl)cc2)c(C)[nH]1	parasite growth, SYBR Green fluorescence	Tm90-C2B (atovaquone-resistant), asexual blood stage	72 h	7.07 nM
CO[C@H]1/C=C/O[C@@]2(C)Oc3c(C)c(O)c4c(O)c(c(/C=N/N5CCN(C)CC5)c(O)c4c3C2=O)NC(=O)/C(C)=C\C=C[C@H](C)[C@H](O)[C@@H](C)[C@@H](O)[C@@H](C)[C@H](OC(C)=O)[C@@H]1C	parasite growth, inhibitor, SYBR Green I	3D7		2410 nM
CCCCCCCNCC(O)c1cc(Cl)cc2c1-c1ccc(Cl)cc1C2 (racemic)		3D7	48 h	29.4 ± 6.9 nM
CC1=C(Cc2cn(CCN3CCOCC3)nn2)C(=O)c2ccccc2C1=O	parasite growth, [3H]hypoxanthine incorporation	NF54	72 h	5950 nM
COC1=CC(c2ccc[nH]2)=N/C1=C\c1[nH]c(C(=O)O)cc1Cc1ccc(OC(F)(F)F)cc1	parasite growth, SYBR Green fluorescence	Dd2 (multidrug-resistant), asexual blood stage	72 h	> 2500 nM
CCCCCCNC[C@H](O)c1cc(Cl)cc2c1-c1ccc(Cl)cc1C2		3D7	48 h	31.1 ± 1.7 nM
CCN(CC)CCCC(C)Nc1ccnc2cc(Cl)ccc12 (stereo not drawn)		D6, sensitive	72 h	0.01 ± 0.0047 µg/mL
CC1(C)N=C(N)N=C(N)N1c1ccc(Cl)cc1	parasite growth	erythrocytes, HB3	low-folate medium	107 ± 13.9 nM
O[C@H](CNCCCC(F)(F)F)c1cc(Cl)cc2c1-c1ccc(Cl)cc1C2		3D7	48 h	8.3 ± 0.1 nM
CCC1=C(CC)/C(=C/c2[nH]c(Cc3ccc(Cl)cc3)cc2Cc2ccc(Cl)cc2)N=C1c1ccc[nH]1	parasite growth, SYBR Green fluorescence	Dd2 (multidrug-resistant), asexual blood stage	72 h	96.1 nM
CO[C@H]1C[C@@H](C[C@H](C)[C@H]2CC(=O)[C@@H](C)/C=C(\C)[C@H](O)[C@H](OC)C(=O)[C@@H](C)C[C@@H](C)/C=C/C=C/C=C(\C)[C@H](OC)C[C@H]3CC[C@H](C)[C@](O)(O3)C(=O)C(=O)N3CCCC[C@@H]3C(=O)O2)CC[C@@H]1OCCO (racemic)	parasite growth, inhibitor, SYBR Green I	3D7		970 nM
CCCCNCC(O)c1cc(Cl)cc2c1-c1ccc(Cl)cc1C2 (racemic)		3D7	48 h	4.7 ± 0.8 nM
O=C(Nc1ccccc1-c1nc2c(C(=O)O)cccc2o1)c1ccccc1	parasite growth, inhibitor, SYBR Green I	3D7		97300 nM
CC1=C(Cn2cc(CN3CCN(C(=O)OC(C)(C)C)CC3)nn2)C(=O)c2ccccc2C1=O	parasite growth, [3H]hypoxanthine incorporation	NF54	72 h	1460 nM

Excerpt of the above:
Compound	assay	test system	setting	IC50
CCCCNCC(O)c1cc(Cl)cc2c1-c1ccc(Cl)cc1C2 (racemic)		3D7	48 h	4.7 ± 0.8 nM
COc1ncnc(NS(=O)(=O)c2ccc(N)cc2)c1OC	cell growth	erythrocytes, HB3	low-folate medium	175000 ± 71600 nM
CCN(CC)CCCC(C)Nc1ccnc2cc(Cl)ccc12 (stereo not drawn)	parasite growth	RF12		210 nM
